Published values collected from several papers.
Protocols differ between the studies behind these lines. ± gives the spread as reported.

Compound | tested on | test | system | setting | scale | measurement | result
COc1ccc(CNc2nc(N3CCC[C@H]3CO)ncc2C(=O)NN)cc1Cl | Salmonella typhimurium |  | TA1535 | 125 µg/plate, 48 h |  | revertant count | 61 ± 3
NC(=O)N1c2ccccc2C=Cc2ccccc21 | Danio rerio |  | zebrafish, male | waterborne exposure, 100 µg/L nominal, 7 d |  | plasma concentration | 2950 ng/mL
COc1ccc(CNc2nc(N3CCC[C@H]3CO)ncc2C(=O)NNC(=O)c2cnc(N3CCC[C@H]3CO)nc2NCc2ccc(OC)c(Cl)c2)cc1Cl | Salmonella typhimurium |  | TA102 | 125 µg/plate |  | revertant count | 257 ± 15
C[C@H](NC(=O)[C@H](Cc1c[nH]cn1)NC(=O)[C@H](CO)NC(=O)[C@@H](N)CC(=O)O)C(=O)N[C@@H](CCCNC(=N)N)C(=O)N[C@@H](CCCNC(=N)N)C(=O)N[C@@H](Cc1c[nH]cn1)C(=O)N[C@@H](Cc1c[nH]cn1)C(=O)NCC(=O)N[C@@H](Cc1ccc(O)cc1)C(=O)N[C@@H](CCCCN)C(=O)N[C@@H](CCCNC(=N)N)C(=O)N[C@@H](CCCCN)C(=O)N[C@@H](Cc1ccccc1)C(=O)N[C@@H](Cc1c[nH]cn1)C(=O)N[C@@H](CCC(=O)O)C(=O)N[C@@H](CCCCN)C(=O)N[C@@H](Cc1c[nH]cn1)C(=O)N[C@@H](Cc1c[nH]cn1)C(=O)N[C@@H](CO)C(=O)N[C@@H](Cc1c[nH]cn1)C(=O)N[C@@H](CCCNC(=N)N)C(=O)NCC(=O)N[C@@H](Cc1ccc(O)cc1)C(=O)O | Candida albicans |  | ATCC 90028 | 2 h, 37 °C | baseline: parent peptide | intact peptide remaining | no effect
CN1CCC[C@@H]1C(=O)N[C@@H](Cc1ccc(-c2ccccc2)cc1)B(O)O | Plasmodium falciparum |  | 3D7, NODscidIL2Rγnull mouse, whole blood | oral, 50 mg/kg, first day of treatment |  | time above in vitro LD50 | ≥ 6 h
CN[C@](C)(C[18F])C(=O)O | DU-145 tumour model |  | host not given, muscle | 2 h, tumour-bearing |  | tracer uptake | 1 %ID/g
CCCCNCC(O)Cn1c2ccc(Cl)cc2c2cc(Cl)ccc21 (centres unmarked) | Plasmodium falciparum |  | WI-38, 3D7 |  | baseline: CC50 WI-38 over IC50 P. falciparum | selectivity index | 32
CC(=NNC(=N)N)c1nnn(-c2ccc(C#CC3(O)CCCCC3)cc2)c1C | Candida albicans |  | Caco-2, SC5314 wild type |  | baseline: Caco-2 IC50 over MIC | selectivity index | 5.5
CN(C)CCNC(=O)/C=C/[C@H](Cc1ccccc1)Nc1ccnc2cc(Cl)ccc12 | Plasmodium falciparum |  | Vero, 3D7 chloroquine-sensitive |  | baseline: Vero CC50 over parasite IC50 | selectivity index | 1620
CCC(=O)N(C)c1ccc(Cl)c(Cl)c1 | Salmonella typhimurium | Ames test | TA100 | 0.05 mg/plate, with rat liver S9 |  | revertants | 89 ± 22.9 revertants/plate
CC1OC(OC2CC(O)C3(CO)C4C(O)CC5(C)C(C6COC(=O)C6)CCC5(O)C4CCC3(O)C2)C(O)C(O)C1O (centres unmarked) | transmissible gastroenteritis virus |  | ST, TGEV-infected | 6 h post infection |  | CC50 | > 50 µM

For quick reference, copied from above:
Compound | tested on | test | system | setting | scale | measurement | result
COc1ccc(CNc2nc(N3CCC[C@H]3CO)ncc2C(=O)NN)cc1Cl | Salmonella typhimurium |  | TA1535 | 125 µg/plate, 48 h |  | revertant count | 61 ± 3
